Experimental data gathered from unrelated publications.
U2AF2: U2AF2 148-342 (Homo sapiens, UniProt P26368)
Chain of UniProt P26368 (whole entry, looked up): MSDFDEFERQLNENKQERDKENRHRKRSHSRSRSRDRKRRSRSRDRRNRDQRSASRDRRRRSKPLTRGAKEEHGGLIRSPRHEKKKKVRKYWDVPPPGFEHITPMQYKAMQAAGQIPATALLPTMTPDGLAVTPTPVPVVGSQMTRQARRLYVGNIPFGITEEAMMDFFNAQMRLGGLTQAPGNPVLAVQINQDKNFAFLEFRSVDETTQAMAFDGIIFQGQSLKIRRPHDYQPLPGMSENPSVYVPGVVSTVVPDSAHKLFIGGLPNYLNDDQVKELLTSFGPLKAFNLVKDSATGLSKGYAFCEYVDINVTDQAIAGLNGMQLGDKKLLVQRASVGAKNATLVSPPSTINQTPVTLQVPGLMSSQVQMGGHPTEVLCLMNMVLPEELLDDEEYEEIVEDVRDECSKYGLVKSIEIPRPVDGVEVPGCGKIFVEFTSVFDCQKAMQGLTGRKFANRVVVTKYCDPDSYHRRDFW
B1: clcA 1-465 C85A/F219A/I220A/I223A/I227A (Escherichia coli, UniProt P37019); chain MKTDTPSLETPQAARLRRRQLIRQLLERDKTPLAILFMAAVVGTLVGLAAVAFDKGVAWLQNQRMGALVHTADNYPLLLTVAFLASAVLAMFGYFLVRKYAPEAGGSGIPEIEGALEDQRPVRWWRVLPVKFFGGLGTLGGGMVLGREGPTVQIGGNIGRMVLDIFRLKGDEARHTLLATGAAAGLAAAFNAPLAGILFIIEEMRPQFRYTLISIKAVAAGVAMSTAMYRIFNHEVALIDVGKLSDAPLNTLWLYLILGIIFGIFGPIFNKWVLGMQDLLHRVHGGNITKWVLMGGAIGGLCGLLGFVAPATSGGGFNLIPIATAGNFSMGMLVFIFVARVITTLLCFSSGAPGGIFAPMLALGTVLGTAFGMVAVELFPQYHLEAGTFAIAGMGALLAASIRAPLTGIILVLEMTDNYQLILPMIITGLGATLLAQFTGGKPLYSAILARTLAKQEAEQLARSK
B2: human FKBP4; sequence looked up; chain MTAEEMKATESGAQSAPLPMEGVDISPKQDEGVLKVIKREGTGTEMPMIGDRVFVHYTGWLLDGTKFDSSLDRKDKFSFDLGKGEVIKAWDIAIATMKVGEVCHITCKPEYAYGSAGSPPKIPPNATLVFEVELFEFKGEDLTEEEDGGIIRRIQTRGEGYAKPNEGAIVEVALEGYYKDKLFDQRELRFEIGEGENLDLPYGLERAIQRMEKGEHSIVYLKPSYAFGSVGKEKFQIPPNAELKYELHLKSFEKAKESWEMNSEEKLEQSTIVKERGTVYFKEGKYKQALLQYKKIVSWLEYESSFSNEEAQKAQALRLASHLNLAMCHLKLQAFSAAIESCNKALELDSNNEKGLFRRGEAHLAVNDFELARADFQKVLQLYPNNKAAKTQLAVCQQRIRRQLAREKKLYANMFERLAEEENKAKAEASSGDHPTDTEMKEEQKSNTAGSQSQVETEA
B3: SPOP D130E (Homo sapiens, UniProt O43791); sequence looked up; chain MSRVPSPPPPAEMSSGPVAESWCYTQIKVVKFSYMWTINNFSFCREEMGEVIKSSTFSSGANDKLKWCLRVNPKGLDEESKDYLSLYLLLVSCPKSEVRAKFKFSILNAKGEETKAMESQRAYRFVQGKEWGFKKFIRRDFLLDEANGLLPDDKLTLFCEVSVVQDSVNISGQNTMNMVKVPECRLADELGGLWENSRFTDCCLCVAGQEFQAHKAILAARSPVFSAMFEHEMEESKKNRVEINDVEPEVFKEMMCFIYTGKAPNLDKMADDLLAAADKYALERLKVMCEDALCSNLSVENAAEILILADLHSADQLKTQAVDFINYHASDVLETSGWKSMVVSHPHLVAEAYRSLASAQCPFLGPPRKRLKQS
B4: OsCATC T105A (Oryza sativa, UniProt Q10S82); sequence looked up; chain MDPYKHRPSSSFNGPLWSTNSGAPVWNNNNSLTVGSRGPILLEDYHLVEKLANFDRERIPERVVHARGASAKGFFEVTHDITHLTCADFLRAPGVQTPVIVRFSAVIHERGSPETLRDPRGFAIKFYTREGNWDLVGNNFPVFFIRDGMKFPDMVHSLKPNPKSHVQENWRILDFFSHHPESLHMFTFLFDDIGIPADYRHMDGSGVNTYTLVNRAGKSHYVKFHWKPTCGVKSLLDDEAVTVGGTNHSHATQDLYDSIAAGNFPEWKLFIQTIDPDHEDRFDFDPLDVTKTWPEDIVPLQPVGRMVLNRNIDNFFSENEQLAFCPGIIVPGIYYSDDKLLQTRIFSYSDTQRHRLGPNYLLLPPNAPKCAHHNNHYDGFMNFMHRDEEVDYFPSRYDPAKHAPRYPIPSATLTGRREKVVIAKENNFKQPGERYRSWDPARQDRFIKRWIDALSDPRLTHEIRSIWLSYWSQADRSLGQKLASRLSAKPSM
B5: mgtA 32-898 (Escherichia coli, UniProt P0ABB8); sequence looked up; chain TVVPPSLSAHCLKMAVMPEEELWKTFDTHPEGLNQAEVESAREQHGENKLPAQQPSPWWVHLWVCYRNPFNILLTILGAISYATEDLFAAGVIALMVAISTLLNFIQEARSTKAADALKAMVSNTATVLRVINDKGENGWLEIPIDQLVPGDIIKLAAGDMIPADLRILQARDLFVAQASLTGESLPVEKAATTRQPEHSNPLECDTLCFMGTTVVSGTAQAMVIATGANTWFGQLAGRVSEQESEPNAFQQGISRVSMLLIRFMLVMAPVVLLINGYTKGDWWEAALFALSVAVGLTPEMLPMIVTSTLARGAVKLSKQKVIVKHLDAIQNFGAMDILCTDKTGTLTQDKIVLENHTDISGKTSERVLHSAWLNSHYQTGLKNLLDTAVLEGTDEESARSLASRWQKIDEIPFDFERRRMSVVVAENTEHHQLVCKGALQEILNVCSQVRHNGEIVPLDDIMLRKIKRVTDTLNRQGLRVVAVATKYLPAREGDYQRADESDLILEGYIAFLDPPKETTAPALKALKASGITVKILTGDSELVAAKVCHEVGLDAGEVVIGSDIETLSDDELANLAQRTTLFARLTPMHKERIVTLLKREGHVVGFMGDGINDAPALRAADIGISVDGAVDIAREAADIILLEKSLMVLEEGVIEGRRTFANMLKYIKMTASSNFGNVFSVLVASAFLPFLPMLPLHLLIQNLLYDVSQVAIPFDNVDDEQIQKPQRWNPADLGRFMIFFGPISSIFDILTFCLMWWVFHANTPETQTLFQSGWFVVGLLSQTLIVHMIRTRRVPFIQSCASWPLMIMTVIVMIVGIALPFSPLASYLQLQALPLSYFPWLVAILAGYMTLTQLVKGFYSRRYGWQ
B6: per 1-575 (Drosophila melanogaster, UniProt P07663); sequence looked up; chain MEGGESTESTHNTKVSDSAYSNSCSNSQSQRSGSSKSRLSGSHSSGSSGYGGKPSTQASSSDMIIKRNKDKSRKKKKNKGAGQGAGQAQTLISASTSLEGRDEEKPRPSGTGCVEQQICRELQDQQHGEDHSEPQAIEQLQQEEEEDQSGSESEADRVEGVAKSEAAQSFPIPSPLSVTIVPPSMGGCGGVGHAAGLDSGLAKFDKTWEAGPGKLESMTGVGAAAAGTGQRGERVKEDSFCCVISMHDGIVLYTTPSITDVLGYPRDMWLGRSFIDFVHLKDRATFASQITTGIPIAESRGSVPKDAKSTFCVMLRRYRGLKSGGFGVIGRPVSYEPFRLGLTFREAPEEARPDNYMVSNGTNMLLVICATPIKSSYKVPDEILSQKSPKFAIRHTATGIISHVDSAAVSALGYLPQDLIGRSIMDFYHHEDLSVMKETYETVMKKGQTAGASFCSKPYRFLIQNGCYVLLETEWTSFVNPWSRKLEFVVGHHRVFQGPKQCNVFEAAPTCKLKISEEAQSRNTRIKEDIVKRLAETVSRPSDTVKQEVSRRCQALASFMETLMDEVSRADLKLE
B7: DDX50 K187R (Homo sapiens, UniProt Q9BQ39); sequence looked up; chain MPGKLLWGDIMELEAPLEESESQKKERQKSDRRKSRHHYDSDEKSETRENGVTDDLDAPKAKKSKMKEKLNGDTEEGFNRLSDEFSKSHKSRRKDLPNGDIDEYEKKSKRVSSLDTSTHKSSDNKLEETLTREQKEGAFSNFPISEETIKLLKGRGVTYLFPIQVKTFGPVYEGKDLIAQARTGTGRTFSFAIPLIERLQRNQETIKKSRSPKVLVLAPTRELANQVAKDFKDITRKLSVACFYGGTSYQSQINHIRNGIDILVGTPGRIKDHLQSGRLDLSKLRHVVLDEVDQMLDLGFAEQVEDIIHESYKTDSEDNPQTLLFSATCPQWVYKVAKKYMKSRYEQVDLVGKMTQKAATTVEHLAIQCHWSQRPAVIGDVLQVYSGSEGRAIIFCETKKNVTEMAMNPHIKQNAQCLHGDIAQSQREITLKGFREGSFKVLVATNVAARGLDIPEVDLVIQSSPPQDVESYIHRSGRTGRAGRTGICICFYQPRERGQLRYVEQKAGITFKRVGVPSTMDLVKSKSMDAIRSLASVSYAAVDFFRPSAQRLIEEKGAVDALAAALAHISGASSFEPRSLITSDKGFVTMTLESLEEIQDVSCAWKELNRKLSSNAVSQITRMCLLKGNMGVCFDVPTTESERLQAEWHDSDWILSVPAKLPEIEEYYDGNTSSNSRQRSGWSSGRSGRSGRSGGRSGGRSGRQSRQGSRSGSRQDGRRRSGNRNRSRSGGHKRSFD
B8: clcA C85A/H234C/R230C/L249C (Escherichia coli, UniProt P37019); chain MKTDTPSLETPQAARLRRRQLIRQLLERDKTPLAILFMAAVVGTLVGLAAVAFDKGVAWLQNQRMGALVHTADNYPLLLTVAFLASAVLAMFGYFLVRKYAPEAGGSGIPEIEGALEDQRPVRWWRVLPVKFFGGLGTLGGGMVLGREGPTVQIGGNIGRMVLDIFRLKGDEARHTLLATGAAAGLAAAFNAPLAGILFIIEEMRPQFRYTLISIKAVFIGVIMSTIMYCIFNCEVALIDVGKLSDAPCNTLWLYLILGIIFGIFGPIFNKWVLGMQDLLHRVHGGNITKWVLMGGAIGGLCGLLGFVAPATSGGGFNLIPIATAGNFSMGMLVFIFVARVITTLLCFSSGAPGGIFAPMLALGTVLGTAFGMVAVELFPQYHLEAGTFAIAGMGALLAASIRAPLTGIILVLEMTDNYQLILPMIITGLGATLLAQFTGGKPLYSAILARTLAKQEAEQLARSKAASASENT
B9: spo0J K252A/K259A (Bacillus subtilis, UniProt P26497); chain MAKGLGKGINALFNQVDLSEETVEEIKIADLRPNPYQPRKHFDDEALAELKESVLQHGILQPLIVRKSLKGYDIVAGERRFRAAKLAGLDTVPAIVRELSEALMREIALLENLQREDLSPLEEAQAYDSLLKHLDLTQEQLAKRLGKSRPHIANHLRLLTLPENIQQLIAEGTLSMGHGRTLLGLKNKNKLEPLVQKVIAEQLNVRQLEQLIQQLNQNVPRETKKKEPVKDAVLKERESYLQNYFGTTVNIARQKKKGAIEIEFFSNEDLDRILELLSERES
B10: SPOP E78K (Homo sapiens, UniProt O43791); sequence looked up; chain MSRVPSPPPPAEMSSGPVAESWCYTQIKVVKFSYMWTINNFSFCREEMGEVIKSSTFSSGANDKLKWCLRVNPKGLDKESKDYLSLYLLLVSCPKSEVRAKFKFSILNAKGEETKAMESQRAYRFVQGKDWGFKKFIRRDFLLDEANGLLPDDKLTLFCEVSVVQDSVNISGQNTMNMVKVPECRLADELGGLWENSRFTDCCLCVAGQEFQAHKAILAARSPVFSAMFEHEMEESKKNRVEINDVEPEVFKEMMCFIYTGKAPNLDKMADDLLAAADKYALERLKVMCEDALCSNLSVENAAEILILADLHSADQLKTQAVDFINYHASDVLETSGWKSMVVSHPHLVAEAYRSLASAQCPFLGPPRKRLKQS

`B1`: binding “binds” (itself; SEC).
Under “log2 fold change”, `B2 (human FKBP4)` is recorded as 0.12 (CYB5R4 knockout human cells; PP4 interaction, 3xFLAG-PP4C IP-MS; concentration not given; reference: CYB5R4 KO over parental).
Under binding, `KLVFFAE (Abeta residues 16-22 (Homo sapiens); N-acetyl, C-amide)` is recorded as “binds” (itself; solid-state NMR; peptide).
`B3 (SPOP D130E)` — result for binding: “binds” (itself; negative-stain TEM).
`proteasome subunit alpha-2 (human)` — result for “log2 fold change”: 1.08 (CYB5R4 knockout human cells; PP6 interaction, 3xFLAG-PP6C IP-MS; concentration not given; reference: CYB5R4 KO over parental).
Under binding, `B4 (OsCATC T105A)` is recorded as “binds” (itself; cross-linking).
Under binding, `B5 (mgtA 32-898)` is recorded as “binds” (itself; native gel or EMSA).
Under binding, `B6 (per 1-575)` is recorded as “binds” (itself; SEC).
Under binding, `GYSSYGQSQSGYSQS (TAF15 52-66 (Homo sapiens, UniProt Q92804); N-acetyl/C-amide; sequence looked up)` is recorded as “binds” (itself; negative-stain TEM; peptide; peptide).
For `B7 (DDX50 K187R)`, binding read “binds” (itself; MST).
`B8 (clcA C85A/H234C/R230C/L249C)`: binding “binds” (itself; FRET).
`CAGUUCUUC (ssRNA)` gave a Kd of 7.6 µM (U2AF2; sequencing of bound RNA; RNA; motif only).
`B9 (spo0J K252A/K259A)` — result for binding: “binds” (itself; SEC-MALS).
`AUCAUUGUU (ssRNA)` gave a Kd of 9.2 µM (U2AF2; sequencing of bound RNA; RNA; motif only).
Under binding, `B10 (SPOP E78K)` is recorded as “binds” (itself; negative-stain TEM).

Excerpt of the above:
`AUCAUUGUU (ssRNA)` gave a Kd of 9.2 µM (U2AF2; sequencing of bound RNA; RNA; motif only).
